Experimental data gathered from unrelated publications.
A part holds a random share of what one study measured.

Block 1 — technique: aptamer microarray, sandwich; form: DNA with 2'F-ANA; medium: in vitro; concentration: 200 nM; together with: Cy3 exosite-II aptamer, 400 nM; direction: higher = stronger binding; oligonucleotide: GGTTGGTGTGGTTGG
Target: Prothrombin, mature alpha-thrombin (F2, Homo sapiens, UniProt P00734)
Setting: whole 15-mer aptamer, many near background
Modification	mean fluorescence intensity [a.u.]
2'F-ANA at 3 4 5 8 9 10 13 14	73.3
2'F-ANA at 1 3 7 11 12 13 14	135
2'F-ANA at 1 2 3 4 7 8 9 11 14	66.1
2'F-ANA at 8 9 10 12 14 15	104
2'F-ANA at 2 3 5 6 7 8 9 10 12 13 15	71.7
2'F-ANA at 1 4 5 8 9 10 12	49.7
2'F-ANA at 1 3 7 10 11 14 15	56.5

Block 2 — technique: RNAcompete; form: RNA; medium: in vitro; concentration: 20 nM; setting: 7-mer, probes averaged, single round; relative to: mean of 7-mers; direction: higher = stronger binding
Target: PABPC1L2, full length, GST fusion (mouse, UniProt A0ABA7IW68)
Residues (chain): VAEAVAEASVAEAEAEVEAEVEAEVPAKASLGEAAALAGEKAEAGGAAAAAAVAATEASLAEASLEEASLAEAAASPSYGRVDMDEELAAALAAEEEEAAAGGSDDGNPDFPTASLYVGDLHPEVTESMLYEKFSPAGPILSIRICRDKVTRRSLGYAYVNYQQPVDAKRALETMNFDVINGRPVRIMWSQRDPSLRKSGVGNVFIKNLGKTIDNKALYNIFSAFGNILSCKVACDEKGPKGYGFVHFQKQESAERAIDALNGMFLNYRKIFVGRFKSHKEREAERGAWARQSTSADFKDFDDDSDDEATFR
Oligonucleotide	7-mer Z-score
UAGUCGG	-0.0899
CUAGUGU	-0.271
GCCGGGA	-0.168
UAAACUC	0.14
CAGUUUA	-0.0935
AUAGACC	-0.0573
ACGCUAU	-0.191

Block 3 — technique: RNA Bind-n-Seq; form: RNA; medium: in vitro; concentration: 20 nM; setting: 6-mer, flanks averaged, single round; together with: 150 mM LiCl; relative to: input library; direction: higher = stronger binding
Target: TAR DNA-binding protein 43, full length, His tag (TARDBP, Homo sapiens, UniProt Q13148, residues 1-414)
Oligonucleotide	6-mer enrichment (R)
UCCAAG	0.841
GCUAGA	0.913
GGCCUA	0.942
UAGAUG	1
GGGUAC	1.02

Mixed results
Molecule	target	test	system	conditions	scale	endpoint	value
PhoQ, residues 284 288 289 292 302 303 SLSLLA	PhoP, residues 12 14 15 18 19 NMSFL (Escherichia coli, UniProt P23836)	Sort-seq, measured: YFP reporter	E. coli	PhoQ-PhoP variant library, together with: 10 µM Mg2+	relative to: high Mg2+ state, higher = stronger signaling	fold induction	2.23
